Published values pooled from the literature.
Lines come from different studies, so protocols differ.
PIK3CD: Phosphatidylinositol 4,5-bisphosphate 3-kinase catalytic subunit delta isoform (PIK3CD, Homo sapiens, UniProt O00329)

Structure (SMILES) | target | assay | test system | setting | how to read | endpoint | value
Nc1ncc2c(n1)-c1c([nH]c3ccc(C4=CCOCC4)cc13)CCC2 | PIK3CD | binding, competition with immobilised ligand | – | 1 µM | – | remaining binding | 99%
CNC(=O)C1CCN(c2cc(C)c(F)cc2NC(=O)c2ccc(-c3cc(O)ccc3C)c(C)c2)CC1 | PIK3CD | binding, competition with immobilised ligand | – | 1 µM | – | remaining binding | 100%
CC(=O)c1cnc(N)nc1N1CC[C@H]1c1nn2ccc(Cl)c2c(=O)n1-c1ccccc1 | PIK3CD | kinase occupancy, inhibitor, KiNativ ATP probe profiling | intact PBMC | 0.01 µM, 1 h | – | inhibition of probe binding | 9.2%
C=CC(=O)N1CCc2ccc(-n3c(=O)ccc4cnc5ccc(-c6cnn(C)c6)cc5c43)cc21 | PIK3CD | KINOMEscan | – | 1 µM | relative to: DMSO control | remaining binding | 100%
CN1CCN(Cc2ccc(-c3ccc(CO[C@H]4CCC[C@@H]4NC(=O)c4cc(-c5cnn(C)c5)cnc4N)cc3)cc2)CC1 | Phosphatidylinositol 4,5-bisphosphate 3-kinase catalytic subunit delta isoform, with p85 alpha (PIK3CD, Homo sapiens, UniProt O00329) | SelectScreen kinase profiling | – | 0.1 µM | – | inhibition | -15%
Cc1ccc(-c2c(/C=C(\C#N)C(=O)NC(C)C)n(CCCO)c3ncnc(N)c23)cc1 | PIK3CD | cell-free assay, competition with immobilised ligand | – | 1 µM | – | remaining binding | 100%
CCN1CCN(Cc2ccc(C(=O)Nc3ccc(C)c(NCc4cnc5[nH]ccc5c4OC)c3)cc2C(F)(F)F)CC1 | PIK3CD | binding, competition with immobilised ligand | – | 1 µM | – | remaining binding | 81%
COc1c(Cl)cccc1Nc1c(-c2ccncc2C#C[C@@]2(C)CCCN2C(=O)/C=C/CN(C)C)[nH]c2c1C(=O)NCC2 | PIK3CD | cell-free assay, competition with immobilised ligand | – | 3 µM | – | remaining binding | 83%
CC(C)=CC1OC(C)(C)C2C=C3C(=O)C(Cl)=CC(O)C3C3C(O)C4OC4C(=O)C132 (centres unmarked) | PIK3CD | cell-free assay, competition with immobilised ligand | – | 10 µM | – | remaining binding | 79%
COc1cc(Nc2nc(C)cc(-c3cnn4nc(OC)ccc34)n2)cc(C(F)(F)F)c1 | PIK3CD | inhibitor | – | 1 µM | relative to: control | remaining activity | 88%
C=CC(=O)Nc1cccc(-c2cnc3[nH]cc(C(=O)NC(C)(C)C)c3n2)c1 | PIK3CD | enzyme activity, inhibitor | – | 0.1 µM | – | inhibition | 19%

A few entries again:
Structure (SMILES) | target | assay | test system | setting | how to read | endpoint | value
COc1c(Cl)cccc1Nc1c(-c2ccncc2C#C[C@@]2(C)CCCN2C(=O)/C=C/CN(C)C)[nH]c2c1C(=O)NCC2 | PIK3CD | cell-free assay, competition with immobilised ligand | – | 3 µM | – | remaining binding | 83%
